Published values collected from several papers.
Every numbered part comes from another study and shows a few of its results, in no order. Substitutions count along the parent as printed.

Block 1 — target: CCNA2, cyclin fold, Cln2 fusion (human); technique: yeast growth competition, sequencing; medium: yeast; setting: strong parent motif; baseline: not given; direction: higher = stronger binding
Starting sequence: CDC6 docking peptide (human); TLKGRRLVFDNQL; partner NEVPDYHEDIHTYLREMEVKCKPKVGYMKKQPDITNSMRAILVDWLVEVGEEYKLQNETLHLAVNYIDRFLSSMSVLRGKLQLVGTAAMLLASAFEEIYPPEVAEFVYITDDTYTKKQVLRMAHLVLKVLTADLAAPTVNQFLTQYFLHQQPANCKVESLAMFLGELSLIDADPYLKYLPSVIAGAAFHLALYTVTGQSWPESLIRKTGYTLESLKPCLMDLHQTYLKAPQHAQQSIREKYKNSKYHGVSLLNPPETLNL
Substitution | normalised enrichment score
R5A | 0.89
Q12D | 3.75
D10F | 2.32
D10I | 2.34
Q12H | 3.24
N11S | 2.26
F9M | 1.59
G4R | 2.96
K3N | 1.16
N11F | 3.36
D10S | 2.68
N11M | 2.25
L13C | 2.97
L13Q | 3.15
D10L | 1.29
K3M | 1.57
L2S | 1.88
L7M | 1.05
N11K | 2.62
V8F | 2.53
R5I | 0.483
L2V | 3.13
N11W | 1.94
Q12W | 2.8

Block 2 — technique: protein binding microarray; form: double-stranded DNA, one strand shown; medium: in vitro; concentration: not given; baseline: not given; direction: higher = stronger binding
Target: Histone acetyltransferase KAT6A, both winged helices, GST fusion (KAT6A, Homo sapiens, UniProt Q92794, residues 1-181)
Setting: 8-mer, flanks averaged, mean of 2 arrays, mostly near background
Residues (chain): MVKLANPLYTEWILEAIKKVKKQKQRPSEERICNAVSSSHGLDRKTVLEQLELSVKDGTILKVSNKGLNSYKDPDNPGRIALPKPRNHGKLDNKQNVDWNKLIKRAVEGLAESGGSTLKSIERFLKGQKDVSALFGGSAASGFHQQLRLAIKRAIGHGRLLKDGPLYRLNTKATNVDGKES
Strand | E-score
AACAAGGC | -0.136
AAGAACAG | -0.0702
CTTAGGTC | -0.095
GATAAAGC | -0.0486
GGGTTCAA | 0.0421
ACAATCGC | 0.167
AGTTCGGA | -0.0575
GATCTATA | -0.0074
AGACGAAC | -0.0651
ACGAACAA | 0.217
ATTCTCTA | -0.212
CAAAAATA | -0.0855
AAGAGGAT | -0.28
GGGTCGAA | -0.154
TATACAAA | -0.0655
AAGTTGCG | 0.015
AAGGAGAG | -0.129
ATAGACAT | -0.14
GTATTTCA | -0.0251
AGCGGTAG | 0.0611
CCCTTACA | -0.118
CCAGTCCG | 0.113
TGGGCACA | 0.0104
AATAATCG | 0.0171

Block 3 — technique: protein-binding microarray; form: hairpin DNA; medium: in vitro; concentration: not given; baseline: not given; direction: higher = stronger binding
Target: Microphthalmia-associated transcription factor, full length (MITF, Homo sapiens, UniProt O75030-10, residues 1-413)
Setting: whole hairpin DNA, median over replicate spots
Strand | median fluorescence [a.u.]
GAGGCCTAGCACTTGCTGCCTCCTGGCAGCAAGTGCTAGGCCTCACACTC | 4990
CACTTAGCAGGTGATTTTGGTCCTCCAAAATCACCTGCTAAGTGACACTC | 9670
CACTTAGCACGTCGTTTTGGTCCTCCAAAACGACGTGCTAAGTGACACTC (5mC at 31) | 4760
GAGGCCTAGCACGCGCTGCCTCCTGGCAGCGCGTGCTAGGCCTCACACTC (5mC at 14) | 14100
CACTTAGCACGTCATTTTGGTCCTCCAAAATGACGTGCTAAGTGACACTC (5mC at 13) | 4450
CACTTAGCCGGTGATTTTGGTCCTCCAAAATCACCGGCTAAGTGACACTC (5mC at 9) | 4800
CACTTAGCACCTGATTTTGGTCCTCCAAAATCAGGTGCTAAGTGACACTC (5mC at 11) | 4470
CACTTAGCGCGTGATTTTGGTCCTCCAAAATCACGCGCTAAGTGACACTC | 19800
GAGGCCTAGCACGTGCGGCCTCCTGGCCGCACGTGCTAGGCCTCACACTC | 20000
GAGGCCTAGCACGCGCTGCCTCCTGGCAGCGCGTGCTAGGCCTCACACTC (5mC at 14 30) | 11000
GAGGCCTAGCACGTGCGGCCTCCTGGCCGCACGTGCTAGGCCTCACACTC (5mC at 16 28) | 17700
GAGGCCCGGCACGTGCTGCCTCCTGGCAGCACGTGCCGGGCCTCACACTC (5mC at 7 37) | 23200
GAGGCCTAGCTCGTGCTGCCTCCTGGCAGCACGAGCTAGGCCTCACACTC | 9610
CACTTAGCACGTGCGTTTGGTCCTCCAAACGCACGTGCTAAGTGACACTC (5mC at 14 30) | 16100
GAGGCCTAGCACGTGCGGCCTCCTGGCCGCACGTGCTAGGCCTCACACTC (5mC at 16) | 18200
GAGGCCTGGCACGTGCTGCCTCCTGGCAGCACGTGCCAGGCCTCACACTC | 23800
CACTTAGCCGGTGATTTTGGTCCTCCAAAATCACCGGCTAAGTGACACTC (5mC at 9 35) | 4300
GAGGCCTAGCGCGTGCTGCCTCCTGGCAGCACGCGCTAGGCCTCACACTC | 14500
GAGGCCTAGCACGTGCTGCCTCCTGGCAGCACGTGCTAGGCCTCACACTC (5mC at 10) | 11800

Block 4 — technique: protein-binding microarray; form: double-stranded DNA, one strand shown; medium: in vitro; concentration: 2540 nM top; setting: 60-bp whole probe; with: salmon DNA 0.4 mg/ml; baseline: random background probes; direction: higher = stronger binding; constant ends, left off below: GCCTAGCAC … GTCTTGATTCGCTTGACGCTGCTG
Target: Interferon regulatory factor 3, full length, phosphomimetic (IRF3, Homo sapiens, UniProt Q14653, residues 1-427, S386D/S396D/S398D/S402D/T404D/S405D)
UniProt Q14653, sequence (whole entry, unmodified, looked up): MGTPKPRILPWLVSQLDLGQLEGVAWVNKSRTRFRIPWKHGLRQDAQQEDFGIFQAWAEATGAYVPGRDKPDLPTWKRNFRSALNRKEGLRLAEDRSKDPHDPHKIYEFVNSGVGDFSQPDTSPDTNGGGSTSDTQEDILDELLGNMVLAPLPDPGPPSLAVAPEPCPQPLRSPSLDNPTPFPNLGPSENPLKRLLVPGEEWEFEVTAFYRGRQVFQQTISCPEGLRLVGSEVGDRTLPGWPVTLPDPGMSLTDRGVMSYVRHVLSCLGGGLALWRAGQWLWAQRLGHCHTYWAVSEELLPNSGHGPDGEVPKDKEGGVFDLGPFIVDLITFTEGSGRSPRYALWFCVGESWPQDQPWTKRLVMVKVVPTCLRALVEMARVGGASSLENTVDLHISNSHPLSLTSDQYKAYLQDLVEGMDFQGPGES
Strand | fitted relative affinity [z-score]
TTAGGTTTCGGATTGGGTTAGTGCTAG | 6.26
TTAGATACCGGGTTTCGATTAGTGCTA | 1.9
TCTGTTGCCCGTATCTAGGTGTGCTAG | 0.565
TCAGGACTCGGGTCTCCCACTGTGCTA | -0.358
TCATATATATAATATATAACTGTGCTA | 0.557
TTAGATTTCCTTTTCCTTTAGTGCTAG | 8.12
TTAGATTTCAGACTGGATAAGTGCTAG | 0.781
TGAGAACTGAGTATCGATTAGTGCTAG | -0.0312
TTAGGTATCTGTATCGGTTAGTGCTAG | 2.93
TTAGGTTTTCTTATCCTTTAGTGCTAG | 2.62
CCACCACCAACACCAGTCATGTGCTAG | -0.0419
TTAGGACTGTACACTGGGTTAGTGCTA | -0.635
GAACATACTAATTTCCATTTGTGCTAG | 2.82
GACGGTATCGCTTTCGGGACGTGCTAG | 4.72
GACGGGATCGACTTTCGGGACGTGCTA | 0.355
TCATTTATATACCTGAAACTGTGCTAG | 1.24
AGTGTTTCCCCTATTTAAGAGTGCTAG | 2.9
TCATTTCTTTACTTCACACTGTGCTAG | 2.31
TCACACACCATTCTCGGACTGTGCTAG | 1.82

Some of these lines once more (block 1):
Substitution | normalised enrichment score
G4R | 2.96
K3N | 1.16
N11F | 3.36
D10S | 2.68
N11M | 2.25
L13C | 2.97
L13Q | 3.15
D10L | 1.29
K3M | 1.57
L2S | 1.88
L7M | 1.05
N11K | 2.62
V8F | 2.53
R5I | 0.483
